Measurements of several laboratories.
Parts stem from different laboratories: compare values within a part only. Substitutions count along the parent as printed.

Sample 1 — target: CCNB3, cyclin fold, Cln2 fusion (human); technique: yeast growth competition, sequencing; sample: yeast; notes: weak parent motif; relative to: not given; direction: higher = stronger binding; endpoint: normalised enrichment score
Parent: GMNC docking peptide (human); KNAKRNLSSEFAN
KNAKRNLSSMFAN [E10M]: 0.565
KNAKRNKSSEFAN [L7K]: 0.189
KNAKPNLSSEFAN [R5P]: 0.0891
KNAKRNLYSEFAN [S8Y]: 0.265
KNAKRNLSSEFFN [A12F]: -0.0934

Sample 2 — technique: RNA Bind-n-Seq; form: RNA; sample: in vitro; concentration: not given; relative to: input RNA pool; direction: higher = stronger binding; endpoint: bound/input enrichment
Target: RING finger protein unkempt homolog, zinc fingers 1-6, GST-SBP tag (UNK, Homo sapiens, UniProt Q9C0B0, residues 30-357)
UniProt Q9C0B0, sequence (30-357, looked up): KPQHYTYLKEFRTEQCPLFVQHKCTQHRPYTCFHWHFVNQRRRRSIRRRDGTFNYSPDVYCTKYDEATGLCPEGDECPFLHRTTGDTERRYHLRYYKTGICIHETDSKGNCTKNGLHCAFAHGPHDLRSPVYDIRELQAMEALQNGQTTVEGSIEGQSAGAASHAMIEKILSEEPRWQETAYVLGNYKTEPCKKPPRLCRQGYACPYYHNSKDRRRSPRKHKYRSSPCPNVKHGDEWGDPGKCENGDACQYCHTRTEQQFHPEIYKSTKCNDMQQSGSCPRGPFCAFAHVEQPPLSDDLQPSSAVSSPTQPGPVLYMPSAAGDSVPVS
Notes: RNA with constant flanks, human and mouse sites, ends assumed
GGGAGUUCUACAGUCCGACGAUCUUGGUGUCUAGAGCUCACCAGCUAGUGAUGGAGGGAUAUAACUGGUGCCAUGACCGGAAUGUAGUAACGAUUUUCAGUGCUCCAAACUAUUGUUAUCGUUGUGGUAACCAAGCUGCAAUCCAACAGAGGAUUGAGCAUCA: 1.17 ratio
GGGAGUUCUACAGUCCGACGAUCACAUUUAAGGAUUUUGUUCUUCAUCCAAGAAGUCACAAAUCAAGAGUUAAAGGUUAUCUGAGACUAAAAAUGACUUAUUUACCUAAAACCAGUGGCUCAGAAGAUGAUAAUGCAGAACAGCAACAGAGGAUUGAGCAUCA: 0.216 ratio
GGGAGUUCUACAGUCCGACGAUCGCAAAGGAAAAAGAAGUAGAGAGUUUAAAACUUCCUUCAGAAAAGAACAGUAAUAAAGCUAAAACUGUUGAAGGGACAAAAGAAGAUUUCUCUUUGAUAGAUUCUGAUGUGGAUGGACUUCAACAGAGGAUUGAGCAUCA: 0.282 ratio
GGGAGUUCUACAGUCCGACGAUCCCACAUGAUGUAGAAAUAAAUAAAAUCAUACCUACGAGUGCAUCCAAGACAGAAGCACCGGCAGCCGCAAAGUCCCUGACAUCGCCCCUCGAUGACACAGAAGUAAAGAAGGUGAUGGAACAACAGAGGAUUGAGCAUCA: 0.882 ratio
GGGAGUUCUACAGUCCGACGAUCACAAUCUCAGAAGAGACUCUGGCCAAUAAUACUUGGUCUUUAAUGUUAAAAGAAGUUCUUUCUUCAAUCUUGAAGGUUCCUGAAGGAUUUUUUUCUGGACUCAUACUCCUUUCAGAGCUGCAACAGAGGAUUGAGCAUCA: 0.238 ratio
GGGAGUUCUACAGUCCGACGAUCGCUGACACAAUAGAUACAAUUGAAAAGGAAAUAAGAAAAAUCUUCAGUAUUCCAGAUGAAAAGGAGACCAGAUUGUGGAACAAAUACAUGAGUAACACAUUUGAACCACUGAAUAAACCACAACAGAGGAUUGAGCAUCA: 0.883 ratio
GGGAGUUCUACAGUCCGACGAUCGAGGAAUGUAAUUCCCUGAGUGAUGUGUUAGAUGCAUUUUCAAAAGCGCCCACAUUUCCUAGUAGCAACUAUUUCACAGCAAUGUGGACAAUUGCCAAAAGACUGUCUGAUGACCAGAAGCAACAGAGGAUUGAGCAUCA: 0.276 ratio

Sample 3 — technique: universal PBM; form: double-stranded DNA, one strand shown; sample: in vitro; concentration: not given; direction: higher = stronger binding; endpoint: E-score
Target: Sal-like protein 4, full length isoform B (SALL4, Homo sapiens, UniProt Q9UJQ4-2, residues 1-616)
Notes: 8-mer, flanks averaged, mean of replicates
CCCTAAGC: -0.153
ATTGGCGG: 0.131
GAGTTACC: -0.211
AACGGAAT: 0.175
AATGGGTC: -0.162
ACTTCATA: 0.291
AATAGTCT: 0.188
GACTGCCA: -0.0475

Further values, each from its own experiment
PhoQ, residues 284 288 289 292 302 303 GANMMA  fold induction (PhoP, residues 12 14 15 18 19 LHSVQ (Escherichia coli, UniProt P23836); Sort-seq, item: YFP reporter; E. coli; PhoQ-PhoP variant library, with: 10 µM Mg2+; relative to: high Mg2+ state, higher = stronger signaling): 1.08

Excerpt of the above (sample 2):
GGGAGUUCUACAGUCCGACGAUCCCACAUGAUGUAGAAAUAAAUAAAAUCAUACCUACGAGUGCAUCCAAGACAGAAGCACCGGCAGCCGCAAAGUCCCUGACAUCGCCCCUCGAUGACACAGAAGUAAAGAAGGUGAUGGAACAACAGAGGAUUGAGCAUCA: 0.882 ratio
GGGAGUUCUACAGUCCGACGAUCACAAUCUCAGAAGAGACUCUGGCCAAUAAUACUUGGUCUUUAAUGUUAAAAGAAGUUCUUUCUUCAAUCUUGAAGGUUCCUGAAGGAUUUUUUUCUGGACUCAUACUCCUUUCAGAGCUGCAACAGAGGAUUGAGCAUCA: 0.238 ratio
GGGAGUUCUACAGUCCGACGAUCGCUGACACAAUAGAUACAAUUGAAAAGGAAAUAAGAAAAAUCUUCAGUAUUCCAGAUGAAAAGGAGACCAGAUUGUGGAACAAAUACAUGAGUAACACAUUUGAACCACUGAAUAAACCACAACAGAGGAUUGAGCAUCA: 0.883 ratio
